Results pooled from the literature.
Several values in a cell are separate wells, animals, samples, runs or records. Numbers after ± are the reported error.

O=C1NC2(CC2)COc2ncc(F)cc2[C@H]2COCCN2c2ccn3ncc1c3n2
reticulocytes (Sprague-Dawley rat, male, blood; oral, 2.5 mg/kg/day, end of recovery, 4-week repeated-dose toxicity; reference: red blood cells): 2.3 ± 0.4%

CC[C@H](C)[C@H](NC(=O)[C@H](CCCCN)NC(=O)CNC(=O)[C@H](CC(C)C)NC(=O)[C@H](Cc1ccccc1)NC(=O)[C@H](CCCCN)NC(=O)[C@H](CO)NC(=O)[C@H](Cc1ccccc1)NC(=O)[C@H](Cc1c[nH]c2ccccc12)NC(=O)[C@H](CCC(N)=O)NC(=O)[C@@H](NC(=O)[C@H](Cc1ccccc1)NC(=O)CCCCCNC(=O)CN1CCN(CC(=O)O)CCN(CC(=O)O)CCN(CC(=O)O)CC1)C(C)C)C(=O)N[C@@H](CCC(=O)O)C(=O)N1CCC[C@H]1C(=O)N[C@@H](CC(=O)O)C(=O)N[C@H](C(=O)N[C@@H](CO)C(=O)N[C@@H](CCC(N)=O)C(=O)N[C@H](C(=O)N[C@@H](CCC(N)=O)C(=O)N[C@@H](CC(=O)O)C(=O)N1CCC[C@H]1C(=O)N[C@@H](CC(N)=O)C(=O)N[C@@H](CC(=O)O)C(=O)N[C@@H](CCC(N)=O)C(=O)N[C@@H](Cc1ccc(O)cc1)C(=O)N[C@@H](CCC(=O)O)C(=O)N1CCC[C@H]1C(=O)N[C@@H](Cc1ccccc1)C(=O)O)C(C)C)C(C)C [copper-64 labelled]
tissue uptake (C57BL/6 mice, pancreas; with: LPS 0.1 mg/kg intratracheal): 1.13 ± 0.07 %ID/g

CCCCC[C@@H]1NC(=O)[C@@H](C)N(C)C(=O)[C@H](CCCCC)OC(=O)[C@@H](C)N(C)C(=O)[C@H](CCCCC)NC(=O)[C@@H](C)N(C)C(=O)[C@H](CCCCC)OC(=O)[C@@H](C)N(C)C1=O
log Papp (PAMPA, HPLC-UV; 500 µM, pH 7.4): -5.23 ± 0.04

C(#Cc1cncc(OC[C@@H]2CCN2)c1)c1ccccc1
concentration (male Sprague-Dawley rat, plasma; oral, 75 mg/kg, 30 min): 410 ng/mL

C=CC(=O)Nc1cccc(Cn2ncc3cnc(Nc4cnn(CCOC)c4)nc32)c1
serum HDL (female Sprague-Dawley rat; oral, 180 mg/kg/day, day 28, 28-day subacute toxicity): 0.58 ± 0.13 mM

NC(=O)c1cc(-c2ccsc2)ccc1OCCc1cc(F)cc(F)c1
metabolized fraction (male CD-1 mouse liver microsomes; concentration not given, 30 min, pH 7.4): 90%

c1ccc(CN2CCCNCCNCCCNCC2)cc1
log overall protonation constant (potentiometry; aqueous 1.0 M KCl; 25 °C, L + H+ to HL): 11.3

CC[C@H](C)[C@H](NC(=O)[C@H](CC(C)C)NC(=O)[C@H](CO)NC(=O)[C@H](CC(C)C)NC(=O)[C@H](CC(C)C)NC(=O)[C@@H](N)CO)C(=O)N[C@@H](CCCNC(=N)N)C(=O)N[C@@H](CCCCN)C(=O)N[C@@H](CC(C)C)C(=O)N[C@H](C(=O)N[C@H](C(=O)O)[C@@H](C)O)[C@@H](C)CC
minimal haemolytic concentration (mouse red blood cells): 100 µM

COc1cnc2cccc(N3CCc4c(cc(Cn5ccnc5)cc4-c4cn(C)nc4C(F)(F)F)C3=O)c2c1
body weight (BALB/c nude mice, MV4-11 xenograft; intraperitoneal, 75 mg/kg, day 10): 23.2 g and 23.8 g and 22.4 g and 24.3 g and 23.6 g and 23 g and 24.8 g and 23.4 g

CC(C)[C@@H]1NC(=O)CNC(=O)[C@H](CC(N)=O)NC(=O)[C@H](CCCNC(=N)N)NC(=O)[C@H](Cc2ccc(O)cc2)NC(=O)[C@H](C(C)C)NC(=O)[C@@H](NC(=O)[C@@H](NC(=O)[C@H](CC(N)=O)NC(=O)[C@H](Cc2c[nH]c3ccccc23)NC(=O)[C@H](C)NC(=O)[C@H](Cc2ccccc2)NC(=O)CNC(=O)[C@H](CCCCN)NC(=O)[C@H](Cc2ccccc2)NC(=O)[C@H](Cc2ccccc2)NC(=O)[C@H](CCCCN)NC(=O)OCC2c3ccccc3-c3ccccc32)C(C)C)CSSC[C@@H](C(=O)N[C@@H](Cc2c[nH]cn2)C(=O)N[C@@H](CCCNC(=N)N)C(=O)N[C@@H](CCCNC(=N)N)C(=O)N[C@@H](C)C(=O)N[C@@H](CC(N)=O)C(N)=O)NC(=O)[C@H](C(C)C)NC(=O)[C@H](CCCNC(=N)N)NC1=O
MCV (ICR mouse, blood; intramammary, 5 mg/kg, day 5, 3 d dosing): 41.1 ± 1.25 fL

CC(C)[C@H](NC(=O)[C@@H](NC(=O)[C@H](CCCNC(=N)N)NC(=O)[C@H](CCCNC(=N)N)NC(=O)[C@H](CCCNC(=N)N)NC(=O)[C@H](CCC(N)=O)NC(=O)[C@H](CCCNC(=N)N)NC(=O)[C@H](CCCNC(=N)N)NC(=O)[C@H](CCCCN)NC(=O)[C@H](CCCCN)NC(=O)[C@H](CCCNC(=N)N)NC(=O)CN)[C@@H](C)O)C(=O)N[C@H](C(=O)N[C@@H](CO)C(=O)N1CCC[C@H]1C(=O)O)[C@@H](C)O
organ weight (ICR mice, female, heart; intranasal, 5 mg/kg daily, 4 weeks): 0.168 ± 0.049 g

CN1Cc2cc(Cl)ccc2-n2c(nnc2C2CCN(c3cccc([18F])n3)CC2)C1
tissue uptake (C57BL/6 mouse male, small intestine; intravenous, 3.7 MBq, 15 min): 14.4 ± 9.3 %ID/g

N=C(N)NCCC[C@H](NC(=O)[C@H](CCCNC(=N)N)NC(=O)[C@H](CCCNC(=N)N)NC(=O)[C@H](CCC(N)=O)NC(=O)[C@H](CCCNC(=N)N)NC(=O)[C@H](CCCNC(=N)N)NC(=O)[C@H](CCCCN)NC(=O)[C@H](CCCCN)NC(=O)[C@H](CCCNC(=N)N)NC(=O)CNC(=O)[C@H](Cc1ccc(O)cc1)NC(=O)[C@H](Cc1ccccc1)NC(=O)[C@H](Cc1ccccc1)NC(=O)[C@H](Cc1ccccc1)NC(=O)OCC1c2ccccc2-c2ccccc21)C(=O)O
health score (C57BL/6 mice; intraperitoneal, 10 mg/kg, 0.5 h; direction not given): 5

Repeated from above:
c1ccc(CN2CCCNCCNCCCNCC2)cc1
log overall protonation constant (potentiometry; aqueous 1.0 M KCl; 25 °C, L + H+ to HL): 11.3
